# Experimental data of several laboratories.
# Compare with care: the assays were run in different laboratories.
# Target: Tyrosine-protein kinase JAK3 (JAK3, Homo sapiens, UniProt P52333)
# Action: inhibitor
# Residues used in one study (P52333 1-1124): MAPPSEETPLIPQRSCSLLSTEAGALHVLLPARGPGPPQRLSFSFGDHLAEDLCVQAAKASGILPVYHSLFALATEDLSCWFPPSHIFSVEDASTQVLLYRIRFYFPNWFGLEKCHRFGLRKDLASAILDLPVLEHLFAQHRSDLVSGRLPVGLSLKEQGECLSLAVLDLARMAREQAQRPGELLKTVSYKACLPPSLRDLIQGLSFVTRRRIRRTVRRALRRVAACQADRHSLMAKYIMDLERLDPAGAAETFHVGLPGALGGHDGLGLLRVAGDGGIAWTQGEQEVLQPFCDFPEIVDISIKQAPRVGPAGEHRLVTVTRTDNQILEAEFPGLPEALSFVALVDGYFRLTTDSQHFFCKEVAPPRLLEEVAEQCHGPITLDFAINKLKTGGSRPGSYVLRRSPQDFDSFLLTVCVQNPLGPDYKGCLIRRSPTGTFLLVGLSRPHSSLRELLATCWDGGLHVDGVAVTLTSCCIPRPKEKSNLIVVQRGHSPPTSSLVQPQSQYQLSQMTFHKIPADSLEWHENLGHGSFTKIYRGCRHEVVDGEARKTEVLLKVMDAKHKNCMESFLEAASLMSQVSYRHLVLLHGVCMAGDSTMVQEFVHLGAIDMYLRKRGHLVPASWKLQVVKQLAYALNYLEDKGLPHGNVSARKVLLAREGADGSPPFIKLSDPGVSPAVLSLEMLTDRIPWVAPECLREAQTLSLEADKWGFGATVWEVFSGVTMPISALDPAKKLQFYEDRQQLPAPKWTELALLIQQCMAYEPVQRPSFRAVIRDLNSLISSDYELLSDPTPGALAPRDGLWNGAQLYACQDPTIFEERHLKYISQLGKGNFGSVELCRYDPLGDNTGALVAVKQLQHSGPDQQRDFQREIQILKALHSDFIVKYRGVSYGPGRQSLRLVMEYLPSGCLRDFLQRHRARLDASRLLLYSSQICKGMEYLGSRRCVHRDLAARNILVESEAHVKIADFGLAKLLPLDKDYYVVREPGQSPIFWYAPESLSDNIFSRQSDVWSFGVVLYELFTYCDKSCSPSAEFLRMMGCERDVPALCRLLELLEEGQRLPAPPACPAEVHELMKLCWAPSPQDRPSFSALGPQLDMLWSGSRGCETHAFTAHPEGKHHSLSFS
SMILES,test,conditions,IC50
CN(C(=O)c1ccn2ncc(-c3ccc(C(N)=O)cc3)c2c1)c1ccc(C#N)cn1,enzyme activity,,> 10000 nM
Cc1nn(C)c(O)c1-c1nc2cc(Cl)c(Cl)cc2[nH]c1=O,"enzyme activity, ADP detection",,14.9 nM
Cc1ccc2oc(-c3c4c(N)n[nH]c(=O)c4nn3-c3ccc(NC(=O)/C=C/CN(C)C)cc3)c(C)c2c1,"enzyme activity, FRET",,> 1000 nM
N#C/C(=C\c1cccc(-c2cnc3[nH]cnc3c2)c1)C(N)=O,,"mean of two experiments, together with: ATP at Km",93 nM
CCn1c(C)c(C(=O)c2ccccc2)c(=O)n1-c1cccc(S(N)(=O)=O)c1,"enzyme activity, ADP detection",,15.8 nM
C=CC(=O)Nc1cccc(Cn2ncc3cnc(Nc4cnn(CCOC)c4)nc32)c1,kinase activity,together with: 1 mM ATP,10.8 nM
COc1cccc2[nH]cc(-c3nc4ccccc4[nH]c3=O)c12,"enzyme activity, ADP detection",,20 to 28 nM
Cc1cnc(Nc2cc(C)c(C)c(C)c2)nc1Nc1ccc2oc(=O)[nH]c2c1,enzyme activity,together with: ATP 1 mM,> 10000 nM
CCn1c(C)c(C(=O)c2ccccc2)c(=O)n1-c1ccc(C)c(C)c1,"enzyme activity, ADP detection",,18.4 nM
CN(C1COC1)C(C)(C)/C=C(\C#N)C(=O)N1CCC[C@H]1Cn1nc(-c2ccc(Oc3ccccc3)cc2F)c2c(N)ncnc21,enzyme activity,,> 3000 nM

# A few entries again:
SMILES,test,conditions,IC50
CCn1c(C)c(C(=O)c2ccccc2)c(=O)n1-c1ccc(C)c(C)c1,"enzyme activity, ADP detection",,18.4 nM
